Measurements from different studies.
Each line is one published result; not all experiments were run side by side.
Target: Receptor-interacting serine/threonine-protein kinase 4 (RIPK4, Homo sapiens, UniProt P57078)

Structure (SMILES) | test | test system | setting | scale | endpoint | result
Cc1ccc(-c2c(/C=C(\C#N)C(=O)NC(C)C)n(CCCO)c3ncnc(N)c23)cc1 | cell-free assay, competition with immobilised ligand |  | 1 µM |  | remaining binding | 100%
CNC1C[S+]2CC[S+]3CC[S+](C1)[Ru-4]321([N]=C=S)[n]2c3ccc(OC)cc3c3c4c(c5cc(F)c[n+]1c5c32)C(=O)NC4=O (stereo not drawn) | KinomeScan |  | 0.1 µM | reference: untreated | remaining binding | 82%
CCn1cc(C(=O)O)c(=O)c2c(N)c(F)c(NC3CCCCC3)cc21 | kinase activity |  | 0.1 µM, added: ATP at Km |  | inhibition | -21.6%
COc1c(Cl)cccc1Nc1c(-c2ccncc2C#C[C@@]2(C)CCCN2C(=O)/C=C/CN(C)C)[nH]c2c1C(=O)NCC2 | binding, competition with immobilised ligand |  | 3 µM |  | remaining binding | 64%
COc1cc(Nc2nccc(-c3cnn4nc(OC)ccc34)n2)cc(C(F)(F)F)c1 | binding, competition with immobilised ligand |  | 1 µM |  | remaining binding | 100%
CNC(=O)C1CCN(c2cc(C)c(F)cc2NC(=O)c2ccc(-c3cc(O)ccc3C)c(C)c2)CC1 | binding, competition with immobilised ligand |  | 1 µM |  | remaining binding | 100%
C=CC(=O)N1CCc2ccc(-n3c(=O)ccc4cnc5ccc(-c6cnn(C)c6)cc5c43)cc21 | KINOMEscan |  | 1 µM | reference: DMSO control | remaining binding | 100%
COc1cc(Nc2nc(C)cc(-c3cnn4nc(OC)ccc34)n2)cc(C(F)(F)F)c1 | binding, competition with immobilised ligand |  | 1 µM |  | remaining binding | 89%
CC(C)=CC1OC(C)(C)C2C=C3C(=O)C(Cl)=CC(O)C3C3C(O)C4OC4C(=O)C132 (stereo not drawn) | cell-free assay, competition with immobilised ligand |  | 10 µM |  | remaining binding | 70%
C=CC(=O)Nc1cc(-c2nn(C3CCN(CCNC(=O)[C@H](C)CCC45CC6CC(CC(C6)C4)C5)CC3)c3ncnc(N)c23)ccc1Oc1ccccc1 | inhibitor, KiNativ profiling | biochemical | 2 µM |  | inhibition | -7.6%
CCN1CCN(Cc2ccc(C(=O)Nc3ccc(C)c(NCc4cnc5[nH]ccc5c4OC)c3)cc2C(F)(F)F)CC1 | binding, competition with immobilised ligand |  | 1 µM |  | remaining binding | 37%
C=CC(=O)N1CCCC(n2c(=O)c3ncccc3n(Cc3ccc(Oc4ccccc4)cc3)c2=O)C1 (stereo not drawn) | cell-free assay, competition with immobilised ligand |  | 1 µM |  | remaining binding | 64%
Cc1cnc2nc1Nc1cccc(c1)COC/C=C/COCc1cc(ccc1OCCN1CCOCC1)N2 | binding, competition with immobilised ligand |  | 0.1 µM |  | remaining binding | 74%
Nc1ncc2c(n1)-c1c([nH]c3ccc(C4=CCOCC4)cc13)CCC2 | binding, competition with immobilised ligand |  | 1 µM |  | remaining binding | 98%
Nc1ncc(-c2cc(-c3cnn(CC(F)(F)F)c3)ncc2F)nc1C(=O)NC1CNCC(F)C1 (stereo not drawn) | enzyme activity |  | 1 µM | reference: DMSO control | remaining activity | 85.5%

Repeated from above:
Structure (SMILES) | test | test system | setting | scale | endpoint | result
Nc1ncc(-c2cc(-c3cnn(CC(F)(F)F)c3)ncc2F)nc1C(=O)NC1CNCC(F)C1 (stereo not drawn) | enzyme activity |  | 1 µM | reference: DMSO control | remaining activity | 85.5%
